Results from different studies.
Numbered parts are unrelated; each lists some results of a single study. Positions count from the first letter of the parent shown.

Study 1
Target: PABPC1L2, full length, GST fusion (mouse, UniProt A0ABA7IW68)
Method: RNAcompete
Form: RNA
Medium: in vitro
Concentration: 20 nM
Notes: 7-mer, probes averaged, single round
Relative to: mean of 7-mers
Reading: higher = stronger binding
Residues (chain): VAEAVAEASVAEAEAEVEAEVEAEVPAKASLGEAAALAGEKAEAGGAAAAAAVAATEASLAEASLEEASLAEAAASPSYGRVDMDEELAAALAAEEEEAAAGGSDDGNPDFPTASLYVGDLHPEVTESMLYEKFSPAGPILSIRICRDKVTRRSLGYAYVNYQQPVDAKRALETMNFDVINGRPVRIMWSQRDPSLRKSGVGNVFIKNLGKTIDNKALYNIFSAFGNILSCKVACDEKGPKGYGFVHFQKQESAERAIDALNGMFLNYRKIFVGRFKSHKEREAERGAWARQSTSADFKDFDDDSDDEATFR
Oligonucleotide | 7-mer Z-score
CGUACGC | -0.224
GAACGUC | -0.115
GUGCAGA | 0.171
CACGUGU | -0.345
CUUGGCG | -0.0681
UCUUCGG | -0.378
GAGUACC | -0.153
AAUCCGG | -0.0156
CUACUUA | -0.141
AAUUCCU | -0.124
AAUCAGA | 0.407
UUGAAAC | -0.0391
AUUUUAU | 0.0225
CGGGUCC | 0.000733
CUGUUCG | -0.393
CUAGUGA | -0.238

Study 2
Target: Prothrombin, mature alpha-thrombin (F2, Homo sapiens, UniProt P00734)
Method: aptamer microarray, sandwich
Form: DNA with 2'F-ANA
Medium: in vitro
Concentration: 200 nM
Notes: whole 15-mer aptamer, many near background
With: Cy3 exosite-II aptamer, 400 nM
Reading: higher = stronger binding
Oligonucleotide: GGTTGGTGTGGTTGG
Modification | mean fluorescence intensity [a.u.]
2'F-ANA at 2 5 6 9 11 13 | 334
2'F-ANA at 1 3 6 7 8 9 10 11 13 14 | 75.9
2'F-ANA at 1 2 4 7 8 10 11 12 13 14 | 47.2
2'F-ANA at 1 5 8 9 13 | 48.9
2'F-ANA at 1 2 3 4 6 7 8 12 13 | 271
2'F-ANA at 2 3 4 6 8 12 13 14 | 280
2'F-ANA at 2 4 5 6 8 9 10 15 | 50.1
2'F-ANA at 2 5 6 9 10 11 15 | 51.6
2'F-ANA at 2 3 4 6 7 8 12 13 14 15 | 360
2'F-ANA at 2 4 5 6 9 11 12 13 15 | 74.8
2'F-ANA at 3 4 5 6 14 | 65.4
2'F-ANA at 2 7 8 9 12 13 14 | 180
2'F-ANA at 1 8 9 10 12 13 | 65.7
2'F-ANA at 1 2 6 8 9 10 | 53.8

Study 3
Target: RNA binding protein fox-1 homolog 2, RRM domain, GST-SBP tag (RBFOX2, Homo sapiens, UniProt O43251-10, residues 100-194)
Method: RNA Bind-n-Seq
Form: RNA
Medium: in vitro
Concentration: 365 nM
Notes: natural RNA segment, single round, ends assumed
Relative to: no-protein control
Reading: higher = stronger binding
Target sequence (chain): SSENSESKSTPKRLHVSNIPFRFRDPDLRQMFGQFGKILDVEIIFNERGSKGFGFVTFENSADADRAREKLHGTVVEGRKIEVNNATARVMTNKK
Oligonucleotide | RBNS enrichment (R)
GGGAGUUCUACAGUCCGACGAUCAAGUACUUAAUGGGGAAAAAAAAGCAGAAAUGUCAACAUUUGACCAAAUUAACACUACCUCCUCCCCAGUUGUUGGUAUUCAUUCAUUAUAUGUGUGUUUAACAGGAUGAUGGAAUUCUCGGGUGCCAA | 0.283
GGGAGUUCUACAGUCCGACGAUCCCCAGUGGGCUCGGCAGCCGUCACUUCACAGAAGAAGAAAGGAACCUUGCUUAGGCCUCAGAUCCCAGCUGUGCUCUCCAAUCCAUUAAUAAAGCUGCUUUUAACCCUCUUGGAAUUCUCGGGUGCCAA | 0.488
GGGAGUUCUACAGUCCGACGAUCUGGUUCCCCUGCCCUCUCCCAUCUUUGAUUGGCUUGGUAUUUGGAGCUUCUGUUAACAUUAUAGAGACUCCUAGGAUGUGUGUUCAUGGCAUUAUAGCUUUUGAAGAAAGUGGAAUUCUCGGGUGCCAA | 0.367
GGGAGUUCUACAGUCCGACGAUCGCUAUGUGAUGCUAGCCGGUGGCUUUCUGGGCUAGGCCCCAGUUUGAGGCUCCCCUGGGAACUAGAGCCAGGAACAGCCAGUGGCACUGACAAGGGGACGGAGUCCAAGGUGGAAUUCUCGGGUGCCAA | 0.919
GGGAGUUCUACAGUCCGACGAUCGGCUAGUCACCUGGCCCCUGUGUGCCCCGUGUUCAUCUGUGAAAGGAGGUAAAAAAAAAAAAAUAUCUACCUGCUGGAUGUCACCCCACACUAAGGGCUUCCACCACUGCUGGAAUUCUCGGGUGCCAA | 0.273
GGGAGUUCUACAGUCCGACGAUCUACAAGGACCUGCUUUUUAAAAGGCCAGAACAAUUGUCUGAAAUUAGUAACAAUGCUGCAUCUAGAUUGGAGUGCUGCACAAACAAACAUAAGAGCAAAGCAAAACUGUAUGGAAUUCUCGGGUGCCAA | 0.665
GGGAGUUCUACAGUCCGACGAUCAAGUUGACCAUUCCAUGUCUCAAGUAUGAGGACCCAGGGACCCCAGGGAAUCUGUUUUCUAUUUACAAGUCUGACAUCUUAAUCCCCACUGCCAAAAUGCUCCGAAAUCUUGGAAUUCUCGGGUGCCAA | 0.428
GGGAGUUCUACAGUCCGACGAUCUGUGGCAGUCUGCAAGUGGAAUUUUGGGAUGGCAGCCCGAGGAACAUCCAGAGUUACUGUGUGACUUGGUCCUGCCAUCGUUAGCUUUGAAAUCACAGGCAUUGGGCUCUUGGAAUUCUCGGGUGCCAA | 0.682
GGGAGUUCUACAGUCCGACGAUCGUCCCCUUGGUCCUGCUUAUGGCUGGACCGGCCCUGCAGGAGGUGGUGGAGCCGUGAAGGAGGCCGAGCUGCAGCUCUGGCUGCUGCUUGGCCUCCUGCUCCAAGACCCUUGGAAUUCUCGGGUGCCAA | 0.242
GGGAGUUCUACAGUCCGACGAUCUGUGACUUCUGGGAAGGCGCUCCCUCAUCUGGGCCAAAGGAAGGAGGACGAAGCCCUCCUCAGCUGGCCUGUGUUUGGGGCAUGAAUCUCUCCUCUCCUCCUUGUCUGGCUGGAAUUCUCGGGUGCCAA | 0.228
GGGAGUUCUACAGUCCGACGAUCAGAAACCCCUCCACAUCCCCGAGGCAGCCCGAUGGCUUCCAGGGUGGCUCGGGCAAGUGGAAGCACGUGGAGUCAGACAGACCUAAGUCCCAGGCCCAGAUUAGCCACUCUGGAAUUCUCGGGUGCCAA | 7.19
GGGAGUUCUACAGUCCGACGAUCCCGAAGUCAGCCUGCUCUACUACUAACAAACAGGCCUGCUGCUAGAUGAUCUCUAAUGACCAAUGGGGCUUCCUUUCUAUAGGGAGGAUACCAGCAGGCCCUUAAGCCUUUGGAAUUCUCGGGUGCCAA | 0.331

Study 4
Target: CCNB3, cyclin fold, Cln2 fusion (human)
Method: yeast growth competition, sequencing
Medium: yeast
Notes: weak parent motif
Relative to: not given
Reading: higher = stronger binding
Parent: CDC25A docking peptide (human); PPHRRRLLFACSP
Variant | normalised enrichment score
PPHRRRLLGACSP [F9G] | 0.372
PPHRRRLLFAWSP [C11W] | 0.0356
PPKRRRLLFACSP [H3K] | -0.385
PPHRRRLLFATSP [C11T] | -0.27
PPHRRDLLFACSP [R6D] | -0.09
PPHRRRLLVACSP [F9V] | 0.242
PPHRRRDLFACSP [L7D] | 0.0695
PPHRRRLLFACMP [S12M] | 0.228
PPHRRRLLFVCSP [A10V] | 0.0713
PPHRRRLLFACST [P13T] | 0.479
PPHRRRLWFACSP [L8W] | 0.369
PPHRRRLCFACSP [L8C] | 0.0993
PPHRRRLYFACSP [L8Y] | 0.319
PPHRRRLSFACSP [L8S] | -0.0165
PPHRRRLLFAYSP [C11Y] | 0.0723
FPHRRRLLFACSP [P1F] | 0.355

Study 5
Target: Interferon regulatory factor 7, full length, phosphomimetic (IRF7, Homo sapiens, UniProt Q92985, residues 1-503, S101K/S471D/S472D/S475D/S476D/S477D/S483D/S484D/S487D)
Method: protein-binding microarray
Form: double-stranded DNA, one strand shown
Medium: in vitro
Concentration: 250 nM
Notes: 60-bp whole probe
With: salmon DNA 0.4 mg/ml
Relative to: random background probes
Reading: higher = stronger binding
Shared flanks, not repeated: GCCTAGCAC … GTCTTGATTCGCTTGACGCTGCTG
Residues (chain): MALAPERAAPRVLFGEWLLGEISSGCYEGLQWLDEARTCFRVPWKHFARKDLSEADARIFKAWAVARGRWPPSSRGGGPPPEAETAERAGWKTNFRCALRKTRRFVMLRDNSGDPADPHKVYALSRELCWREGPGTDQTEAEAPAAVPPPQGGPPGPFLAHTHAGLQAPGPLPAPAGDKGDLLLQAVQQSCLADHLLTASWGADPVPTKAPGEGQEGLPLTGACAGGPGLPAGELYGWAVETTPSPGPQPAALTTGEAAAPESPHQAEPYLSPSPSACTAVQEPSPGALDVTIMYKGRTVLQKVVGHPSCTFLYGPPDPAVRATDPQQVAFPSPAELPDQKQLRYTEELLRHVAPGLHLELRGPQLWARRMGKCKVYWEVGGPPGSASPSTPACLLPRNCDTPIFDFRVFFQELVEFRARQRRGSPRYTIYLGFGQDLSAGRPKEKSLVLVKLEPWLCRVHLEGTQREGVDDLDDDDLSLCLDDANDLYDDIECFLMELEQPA
Oligonucleotide | log fluorescence
CAGTTTATTTATTTTTACATGTGCTAG | 1.28 z-score
TTCGATCTCAGACTGGATTAGTGCTAG | 0.244 z-score
TTAGGTTTCGGGTTTTGGTTAGTGCTA | 9.68 z-score
GACGATATCGGGTTTCAAGACGTGCTA | 0.164 z-score
GACGGACTGGACTATCGCGACGTGCTA | -0.827 z-score
TTAGGTTTCGGTTGCGGTTAGTGCTAG | 9.15 z-score
TTATGTTTCGGTCTCGGTTAGTGCTAG | 4.87 z-score
TTAGGTTCCCTTTTCCTGTAGTGCTAG | 3.94 z-score
GACGGTCTCCTTTTCCTGGCGTGCTAG | 1.37 z-score
GACGGTCTCGGACTGGGGAAGTGCTAG | 0.177 z-score
TGGGAGCTCAGGAATCCCACGTGCTAG | -0.563 z-score
AAGATTCTAGCCTATAGAAGCGTGCTA | 0.326 z-score
TCAATTTTGTGTTTTCAACTGTGCTAG | 0.521 z-score
TTGGAACTGAGACTGGATTAGTGCTAG | -0.271 z-score

Study 6
Target: ABI1, truncated, D143A, DHFR fusion (Arabidopsis thaliana)
Method: DHFR PCA, deep sequencing
Medium: yeast
Notes: methotrexate growth selection, single substitutions
With: (+)-ABA 2500 µM
Relative to: wild-type fitted maximum
Reading: higher = stronger binding
Parent: PYL1, truncated, DHFR fusion (Arabidopsis thaliana); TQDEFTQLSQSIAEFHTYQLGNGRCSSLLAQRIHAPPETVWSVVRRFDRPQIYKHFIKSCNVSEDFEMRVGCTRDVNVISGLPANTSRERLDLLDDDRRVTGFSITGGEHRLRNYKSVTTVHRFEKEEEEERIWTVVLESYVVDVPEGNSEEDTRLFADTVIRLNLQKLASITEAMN
Variant | relative binding score [%]
K126C | 100
R123M | 103
D96Q | 90.8
A84R | 4.91
T101F | 104
Y53T | 67.1
Q10I | 98.1
F5D | 93.9
L29G | 56.6
G148L | 89.4
R24S | 99.9
L138V | 94
T106I | 101
